Assay results collected from several papers.
Each line is one published result; not all experiments were run side by side.

| Compound | assay | system | conditions | quantity | value |
| --- | --- | --- | --- | --- | --- |
| Cc1cc(NC2CCN(C(=O)OC3CCN(C(=O)/C=C/CN(C)C)C3)CC2)n2ncc(C(C)C)c2n1 (stereo not drawn) | Phase I dose escalation CTCAE v4.0, refers to: platelet count decreased | patients with advanced solid tumours | dose not given, TIW dosing grade 3 or higher | patients with adverse event | 0% |
| CCOc1c([C@H](C)n2nc(C)c3c(N)ncnc32)cc(Cl)c(F)c1[C@@H]1CNC(=O)C1 | refers to: QTcF ≤450 ms | previously treated B-cell malignancy | oral, 15 mg once daily, overall population | patients | 100% |
| C[C@@H](c1ccc2nccn2c1)n1nnc2ncc(-c3cnn(C)c3)nc21 | refers to: treatment-related grade ≥3 Myalgia | EGFR-mutant MET-altered NSCLC | oral, dose not given | patients with adverse events | 0% |
| CNC(=O)c1ccc(-c2cnc3ncc(Cc4ccc5ncccc5c4)n3n2)cc1F | refers to: Cough | hepatocellular carcinoma patients | oral, 600 mg twice daily, expansion cohort, grade 3-4 | patients with adverse event | 0% |
| COc1ccc([C@@H](O)c2cc(-c3ncnc4cc(N5CCOCC5)ccc34)c(F)cc2Cl)nn1 | refers to: Diarrhea | locally advanced rectal cancer patients | dose not given, all dose groups, together with: capecitabine plus radiotherapy | patients with drug-related AE | 58% |
| FC(F)(F)c1ccc(CNc2ccc(Cc3c[nH]c4ncc(Cl)cc34)cn2)cn1 | refers to: blood alkaline phosphatase increased | non-TGCT solid tumour patients | oral, 1000 mg/day, grade 3 or higher | patients with treatment-related adverse event | 2% |
| C[C@@H](Nc1cc(F)cc(F)c1)c1cc(C(=O)N(C)C)cc2c(=O)cc(N3CCOCC3)oc12 | CTCAE v4, refers to: maculopapular rash | patients with advanced solid tumours | oral, dose not given, phase I dose finding | patients with related SAE | 3.2% |
| COc1cc(Nc2ncc3c(n2)-c2ccc(Cl)cc2C(c2c(F)cccc2OC)=NC3)ccc1C(=O)O | refers to: Dyspnea, all grades | cancer patients, phase 1/2 | oral, dose not given, together with: pembrolizumab | patients with adverse event | 17% |
| O=C(Nc1nc2cccc(-c3ccc(CN4CCS(=O)(=O)CC4)cc3)n2n1)C1CC1 |  | rheumatoid arthritis patients | oral, 100 mg twice daily, 4 weeks, regardless of relatedness | patients with body temperature increased | 0% |

A few entries again:
| Compound | assay | system | conditions | quantity | value |
| --- | --- | --- | --- | --- | --- |
| FC(F)(F)c1ccc(CNc2ccc(Cc3c[nH]c4ncc(Cl)cc34)cn2)cn1 | refers to: blood alkaline phosphatase increased | non-TGCT solid tumour patients | oral, 1000 mg/day, grade 3 or higher | patients with treatment-related adverse event | 2% |
